Experimental data collected from several papers.
Every numbered part comes from another study and shows a few of its results, in no order.

Sample 1
Target: UBE2C UBC core domain (UniProt O00762)
Technique: yeast two-hybrid
Sample: yeast
Setting: mostly zero background
Reference: not given
Reading: higher = stronger interaction
B1: ZNRF3 RING domain (UniProt Q9ULT6); chain DTLSSSSTSDCAICLEKYIDGEELRVIPCTHRFHRKCVDPWLLQHHTCPHCRHNIIEQKGNP
B2: TRIM48 RING domain (UniProt Q8IWZ4); chain ISQVFQRELTCPICMNYFIDPVTIDCGHSFCRPCFYLNWQDIPILTQCFECIKTIQQRNLKT
B3: RNF181 RING domain (UniProt Q9P0P0); chain VIRGSQAELKCPVCLLEFEEEETAIEMPCHHLFHSSCILPWLSKTNSCPLCRYELPTDDDTY
B4: RNF24 RING domain (UniProt Q9Y225); chain KVKELNLHELCAVCLEDFKPRDELGICPCKHAFHRKCLIKWLEVRKVCPLCNMPVLQLAQLH
Residues (chain): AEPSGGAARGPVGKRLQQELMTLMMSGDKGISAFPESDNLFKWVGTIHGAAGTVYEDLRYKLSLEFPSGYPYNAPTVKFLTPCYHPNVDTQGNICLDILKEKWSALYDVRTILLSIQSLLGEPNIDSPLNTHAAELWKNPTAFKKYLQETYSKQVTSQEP
Under “lacZ reporter activity”, `KITELNPHLMCVLCGGYFIDATTIIECLHSFCKTCIVRYLETSKYCPICDVQVHKTRPLL (BMI1 RING domain (UniProt P35226))` is recorded as 0.
Under “lacZ reporter activity”, `QLRRLQEERTCKVCLDRAVSIVFVPCGHLVCAECAPGLQLCPICRAPVRSRVRTF (BIRC7 RING domain (UniProt Q96CA5))` is recorded as 0.
For `NTAPSLTVPECAICLQTCVHPVSLPCKHVFCYLCVKGASWLGKRCALCRQEIPEDFLDK (RNF146 RING domain (UniProt Q9NTX7))`, “lacZ reporter activity” read 0.
`MDDQGCPRCKTTKYRNPSLKLMVNVCGHTLCESCVDLLFVRGAGNCPECGTPLRKSNFRV (MNAT1 RING domain (UniProt P51948))`: “lacZ reporter activity” 0.
`B1 (ZNRF3 RING domain)` — result for “lacZ reporter activity”: 0.
For `B2 (TRIM48 RING domain)`, “lacZ reporter activity” read 0.
`B3 (RNF181 RING domain)` — result for “lacZ reporter activity”: 0.
For `B4 (RNF24 RING domain)`, “lacZ reporter activity” read 0.

Sample 2
Target: PABPC1L2, full length, GST fusion (mouse, UniProt A0ABA7IW68)
Technique: RNAcompete
Molecule type: RNA
Sample: in vitro
Concentration: 20 nM
Setting: 7-mer, probes averaged, single round
Reference: mean of 7-mers
Reading: higher = stronger binding
Construct (chain): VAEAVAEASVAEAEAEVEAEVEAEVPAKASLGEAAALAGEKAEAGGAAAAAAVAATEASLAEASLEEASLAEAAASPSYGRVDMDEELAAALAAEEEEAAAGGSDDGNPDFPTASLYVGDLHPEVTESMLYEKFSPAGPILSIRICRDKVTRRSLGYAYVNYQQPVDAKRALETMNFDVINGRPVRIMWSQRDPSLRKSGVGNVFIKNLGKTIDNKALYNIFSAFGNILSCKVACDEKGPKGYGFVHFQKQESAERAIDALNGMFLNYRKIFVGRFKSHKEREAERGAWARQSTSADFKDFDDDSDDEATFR
The 7-mer Z-score of `CUCCACU` is reported as -0.378.
With `GCAGGCU` the 7-mer Z-score was 0.0823.
The 7-mer Z-score of `CAUAGUG` is reported as -0.244.
The 7-mer Z-score of `GGGGACC` is reported as 0.16.
`AUCCAGC` gave a 7-mer Z-score of -0.175.
For `CGAAAGU`, the 7-mer Z-score was -0.00652.
`GGCGCUC` gave a 7-mer Z-score of -0.00833.
`UUAUGUC` has a 7-mer Z-score of -0.344.

Sample 3
Target: TAR DNA-binding protein 43, full length, His tag (TARDBP, Homo sapiens, UniProt Q13148, residues 1-414)
Technique: RNA Bind-n-Seq
Molecule type: RNA
Sample: in vitro
Concentration: 20 nM
Setting: 6-mer, flanks averaged, single round
Added: 150 mM KCl
Reference: input library
Reading: higher = stronger binding
For `UAUUUC`, “6-mer enrichment (R)” read 0.582.
`ACUUGA` — result for “6-mer enrichment (R)”: 0.641.
`AGAAGC` — result for “6-mer enrichment (R)”: 0.826.
`ACGCGG` — result for “6-mer enrichment (R)”: 1.8.
`AACUUC` — result for “6-mer enrichment (R)”: 0.572.
For `GUGUUG`, “6-mer enrichment (R)” read 1.4.
`UCACGA`: “6-mer enrichment (R)” 0.629.
Under “6-mer enrichment (R)”, `GGUAUA` is recorded as 0.912.

Other studies, line by line
For `c1ccc(C2CN3CCSC3=N2)cc1` (stereo not shown), “nuclear SOX9 intensity” read 106 % of DMSO (mouse MPNST tumor cells; high-content immunofluorescence imaging, item: nuclear SOX9; 10 µM, 12 h, mean of 2 replicates; reference: DMSO control, higher = more nuclear SOX9).

Some of these lines once more (sample 1):
`B1 (ZNRF3 RING domain)` — result for “lacZ reporter activity”: 0.
For `B2 (TRIM48 RING domain)`, “lacZ reporter activity” read 0.
Under “lacZ reporter activity”, `QLRRLQEERTCKVCLDRAVSIVFVPCGHLVCAECAPGLQLCPICRAPVRSRVRTF (BIRC7 RING domain (UniProt Q96CA5))` is recorded as 0.
